Measurements collected from several papers.
Compare with care: the assays were run in different laboratories. “And” joins repeats or separate records; there may be more than shown. ± marks the error that the study gave.
U2AF2: U2AF2 148-342 (Homo sapiens, UniProt P26368)
Sequence of UniProt P26368 (whole entry, looked up): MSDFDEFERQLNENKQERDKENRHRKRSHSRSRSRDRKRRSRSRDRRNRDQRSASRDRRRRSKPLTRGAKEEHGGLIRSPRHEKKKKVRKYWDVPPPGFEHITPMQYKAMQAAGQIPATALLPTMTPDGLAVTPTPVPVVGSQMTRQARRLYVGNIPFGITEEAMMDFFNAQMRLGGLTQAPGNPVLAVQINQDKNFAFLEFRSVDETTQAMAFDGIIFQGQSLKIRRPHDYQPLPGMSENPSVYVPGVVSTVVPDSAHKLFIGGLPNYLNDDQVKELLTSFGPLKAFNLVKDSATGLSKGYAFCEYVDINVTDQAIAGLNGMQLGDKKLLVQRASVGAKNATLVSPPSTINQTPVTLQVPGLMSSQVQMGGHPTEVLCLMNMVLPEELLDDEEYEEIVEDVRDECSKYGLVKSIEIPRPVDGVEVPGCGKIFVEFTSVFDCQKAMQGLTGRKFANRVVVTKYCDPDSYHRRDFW
B1: CSRP2, human; sequence looked up; chain MPVWGGGNKCGACGRTVYHAEEVQCDGRSFHRCCFLCMVCRKNLDSTTVAIHDEEIYCKSCYGKKYGPKGYGYGQGAGTLNMDRGERLGIKPESVQPHRPTTNPNTSKFAQKYGGAEKCSRCGDSVYAAEKIIGAGKPWHKNCFRCAKCGKSLESTTLTEKEGEIYCKGCYAKNFGPKGFGYGQGAGALVHAQ
B2: gamma-glutamyl hydrolase (human); sequence looked up; chain RPHGDTAKKPIIGILMQKCRNKVMKNYGRYYIAASYVKYLESAGARVVPVRLDLTEKDYEILFKSINGILFPGGSVDLRRSDYAKVAKIFYNLSIQSFDDGDYFPVWGTCLGFEELSLLISGECLLTATDTVDVAMPLNFTGGQLHSRMFQNFPTELLLSLAVEPLTANFHKWSLSVKNFTMNEKLKKFFNVLTTNTDGKIEFISTMEGYKYPVYGVQWHPEKAPYEWKNLDGISHAPNAVKTAFYLAEFFVNEARKNNHHFKSESEEEKALIYQFSPIYTGNISSFQQCYIFD
B3: human ATP citrate lyase; sequence looked up; chain MSAKAISEQTGKELLYKFICTTSAIQNRFKYARVTPDTDWARLLQDHPWLLSQNLVVKPDQLIKRRGKLGLVGVNLTLDGVKSWLKPRLGQEATVGKATGFLKNFLIEPFVPHSQAEEFYVCIYATREGDYVLFHHEGGVDVGDVDAKAQKLLVGVDEKLNPEDIKKHLLVHAPEDKKEILASFISGLFNFYEDLYFTYLEINPLVVTKDGVYVLDLAAKVDATADYICKVKWGDIEFPPPFGREAYPEEAYIADLDAKSGASLKLTLLNPKGRIWTMVAGGGASVVYSDTICDLGGVNELANYGEYSGAPSEQQTYDYAKTILSLMTREKHPDGKILIIGGSIANFTNVAATFKGIVRAIRDYQGPLKEHEVTIFVRRGGPNYQEGLRVMGEVGKTTGIPIHVFGTETHMTAIVGMALGHRPIPNQPPTAAHTANFLLNASGSTSTPAPSRTASFSESRADEVAPAKKAKPAMPQDSVPSPRSLQGKSTTLFSRHTKAIVWGMQTRAVQGMLDFDYVCSRDEPSVAAMVYPFTGDHKQKFYWGHKEILIPVFKNMADAMRKHPEVDVLINFASLRSAYDSTMETMNYAQIRTIAIIAEGIPEALTRKLIKKADQKGVTIIGPATVGGIKPGCFKIGNTGGMLDNILASKLYRPGSVAYVSRSGGMSNELNNIISRTTDGVYEGVAIGGDRYPGSTFMDHVLRYQDTPGVKMIVVLGEIGGTEEYKICRGIKEGRLTKPIVCWCIGTCATMFSSEVQFGHAGACANQASETAVAKNQALKEAGVFVPRSFDELGEIIQSVYEDLVANGVIVPAQEVPPPTVPMDYSWARELGLIRKPASFMTSICDERGQELIYAGMPITEVFKEEMGIGGVLGLLWFQKRLPKYSCQFIEMCLMVTADHGPAVSGAHNTIICARAGKDLVSSLTSGLLTIGDRFGGALDAAAKMFSKAFDSGIIPMEFVNKMKKEGKLIMGIGHRVKSINNPDMRVQILKDYVRQHFPATPLLDYALEVEKITTSKKPNLILNVDGLIGVAFVDMLRNCGSFTREEADEYIDIGALNGIFVLGRSMGFIGHYLDQKRLKQGLYRHPWDDISYVLPEHMSM
B4: human AIMP1; sequence looked up; chain ANNDAVLKRLEQKGAEADQIIEYLKQQVSLLKEKAILQATLREEKKLRVENAKLKKEIEELKQELIQAEIQNGVKQIPFPSGTPLHANSMVSENVIQSTAVTTVSSGTKEQIKGGTGDEKKAKEKIEKKGEKKEKKQQSIAGSADSKPIDVSRLDLRIGCIITARKHPDADSLYVEEVDVGEIAPRTVVSGLVNHVPLEQMQNRMVILLCNLKPAKMRGVLSQAMVMCASSPEKIEILAPPNGSVPGDRITFDAFPGEPDKELNPKKKIWEQIQPDLHTNDECVATYKGVPFEVKGKGVCRAQTMSNSGIK
B5: human CAP2; sequence looked up; chain ANMQGLVERLERAVSRLESLSAESHRPPGNCGEVNGVIAGVAPSVEAFDKLMDSMVAEFLKNSRILAGDVETHAEMVHSAFQAQRAFLLMASQYQQPHENDVAALLKPISEKIQEIQTFRERNRGSNMFNHLSAVSESIPALGWIAVSPKPGPYVKEMNDAATFYTNRVLKDYKHSDLRHVDWVKSYLNIWSELQAYIKEHHTTGLTWSKTGPVASTVSAFSVLSSGPGLPPPPPPLPPPGPPPLFENEGKKEESSPSRSALFAQLNQGEAITKGLRHVTDDQKTYKNPSLRAQGGQTQSPTKSHTPSPTSPKSYPSQKHAPVLELEGKKWRVEYQEDRNDLVISETELKQVAYIFKCEKSTIQIKGKVNSIIIDNCKKLGLVFDNVVGIVEVINSQDIQIQVMGRVPTISINKTEGCHIYLSEDALDCEIVSAKSSEMNILIPQDGDYREFPIPEQFKTAWDGSKLITEPAEIMA
Sequence of UniProt P13393 (whole entry, looked up): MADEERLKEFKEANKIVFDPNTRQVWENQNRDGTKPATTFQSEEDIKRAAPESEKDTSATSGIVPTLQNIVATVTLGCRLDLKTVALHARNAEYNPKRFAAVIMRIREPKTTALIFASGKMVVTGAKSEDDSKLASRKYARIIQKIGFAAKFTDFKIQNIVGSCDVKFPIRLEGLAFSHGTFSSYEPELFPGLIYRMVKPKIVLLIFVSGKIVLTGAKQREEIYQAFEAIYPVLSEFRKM
Sequence of UniProt P21980 (whole entry, looked up): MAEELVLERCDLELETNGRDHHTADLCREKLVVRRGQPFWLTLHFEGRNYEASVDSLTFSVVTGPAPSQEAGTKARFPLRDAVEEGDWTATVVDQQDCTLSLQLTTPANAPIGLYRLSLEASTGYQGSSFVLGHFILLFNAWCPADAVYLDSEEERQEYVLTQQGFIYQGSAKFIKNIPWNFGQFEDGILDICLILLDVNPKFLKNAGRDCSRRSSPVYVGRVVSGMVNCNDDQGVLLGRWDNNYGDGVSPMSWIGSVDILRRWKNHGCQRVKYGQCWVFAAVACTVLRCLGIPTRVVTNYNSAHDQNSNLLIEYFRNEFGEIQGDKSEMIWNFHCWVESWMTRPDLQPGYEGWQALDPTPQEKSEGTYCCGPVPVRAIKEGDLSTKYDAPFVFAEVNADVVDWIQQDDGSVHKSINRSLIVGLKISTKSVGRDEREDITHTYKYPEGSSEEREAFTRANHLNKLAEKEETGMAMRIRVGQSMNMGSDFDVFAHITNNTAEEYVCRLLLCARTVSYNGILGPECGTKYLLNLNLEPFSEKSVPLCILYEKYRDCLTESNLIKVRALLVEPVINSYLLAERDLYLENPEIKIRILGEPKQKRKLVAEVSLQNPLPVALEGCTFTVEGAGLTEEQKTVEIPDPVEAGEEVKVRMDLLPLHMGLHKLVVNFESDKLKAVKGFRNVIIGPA

`PKRSFIESNV` gave a binding intensity of 0.596 (construct, MBP fusion, human SCRIB, PDZ 3-4; automated holdup; peptide, crude extract; concentration not given, corrected by standard peak, unit not given; baseline: biotin control resin, higher = stronger binding).
`GEMVGQARILAQATSDLVNAIKDA` — result for “mean rupture force”: 55.1 pN (vinculin head domain Vd1; complex rupture, AFM single-molecule force spectroscopy; peptide; traces traces, C-terminal pulling, 800 nm/s).
With `AUUGUUUAU (ssRNA)` the Kd was 6.09 µM (U2AF2; sequencing of bound RNA; RNA; motif only).
For `B1 (CSRP2, human)`, “log2 fold change” read -1.91 (PP6C (human); co-immunoprecipitation, IP-MS; CYB5R4 knockout cells; concentration not given; baseline: CYB5R4 knockout over parental).
With `transthyretin` the enrichment fold was 101 (hnRNPA2B1 human; pull-down LC-MS/MS; baseline: blank).
The Kd of `ATGACTGAATTCAAGGCCGGTTCTGCTAAGAAAGGTCAAGTCAATCGGTCC (dsDNA; 5'-amino-C6 primer)` is reported as 0.0336 ± 0.00248 µM (SPT15 full length assumed (Saccharomyces cerevisiae, UniProt P13393); array; double-stranded DNA, one strand shown; TBP alone).
For `GSGAGIATEV`, “normalised SPR binding response” read 15.3 normalised RU (construct, MBP fusion, human SCRIB, PDZ 3-4; surface plasmon resonance; peptide; concentration not given; higher = stronger binding).
`colistin` has an MIC of 8 µg/mL (Escherichia coli; broth microdilution; clinical isolate RKI-No_525/16).
With `UAUACUUUU (ssRNA)` the Kd was 11 µM (U2AF2; sequencing of bound RNA; RNA; motif only).
Under “log2 fold change”, `B2 (gamma-glutamyl hydrolase)` is recorded as 0.0044 (PP6C (human); co-immunoprecipitation, IP-MS; CYB5R4 knockout cells; concentration not given; baseline: CYB5R4 knockout over parental).
For `secretory leukocyte protease inhibitor`, the p-JNK/JNK ratio was 0.76 ± 0.16 (JNK (mouse); Western blot; RAW264.7; concentration not given, 6 h pretreatment, together with: LPS for 30 min).
`GSGAGKETEC` — result for “normalised SPR binding response”: 0 normalised RU (construct, MBP fusion, human SCRIB, PDZ 3-4; surface plasmon resonance; peptide; concentration not given; higher = stronger binding).
For `B3 (human ATP citrate lyase)`, “log2 fold change” read 0.71 (PP6C (human); co-immunoprecipitation, IP-MS; CYB5R4 knockout cells; concentration not given; baseline: CYB5R4 knockout over parental).
`VVVGACGVGK` gave a remaining protein of 0.742 and 0.72 and 0.728 (HLA-A*11:01 peptide-β2M single-chain trimer; western blot, refers to: pMHC-I; peptide, 293T cells; 24 h, unit not given, together with: 100 µg/mL cycloheximide; baseline: time zero).
Under “log2 fold change”, `B4 (human AIMP1)` is recorded as 0.96 (PP6C (human); co-immunoprecipitation, IP-MS; CYB5R4 knockout cells; concentration not given; baseline: CYB5R4 knockout over parental).
Under cross-linked residues, `FGA (Homo sapiens, UniProt P02671)` is recorded as “K440 to K191” (SYP (Homo sapiens, UniProt P08247); cross-linking MS; together with: DSSO).
The Tm of `FVTI` is reported as 35.2 ± 0.2 °C (mouse H2-Dd/human β2m; thermal stability rescue, DSF; peptide; 20-fold molar excess, pH 7.2, peptide-deficient, UV-irradiated).
For `GSGAGHETIV`, “normalised SPR binding response” read 7.4 normalised RU (construct, MBP fusion, human SCRIB, PDZ 3-4; surface plasmon resonance; peptide; concentration not given; higher = stronger binding).
For `human USP10`, “log2 fold change” read -0.63 (PP6C (human); co-immunoprecipitation, IP-MS; CYB5R4 knockout cells; concentration not given; baseline: CYB5R4 knockout over parental).
For `CXCL10`, “KIM127 epitope expression” read 32.6% (human LFA-1 (αLβ2); LFA-1 activation; memory T cells; 80 ng/mL, together with: ICAM-1; baseline: ICAM-1 untreated).
Under “normalised SPR binding response”, `NRVDSKETEC` is recorded as 22.1 normalised RU (construct, MBP fusion, human SCRIB, PDZ 3-4; surface plasmon resonance; peptide; concentration not given; higher = stronger binding).
With `GGGAGCAGGAGAGAGGUCAGAUGAUACGAGAGAUGUAGCCUCUUUUAUUGCGUCCUAUGCGUGCUAGUGUGA (ssRNA; 2'-fluoro pyrimidines)` the relative binding was 34.4 RU (TGM2 2-687 (Homo sapiens, UniProt P21980); SPR; RNA; together with: MgCl2 5 mM; higher = more binding).
With `SVWLRKETRV` the binding intensity was 0.495 (construct, MBP fusion, human SCRIB, PDZ 3-4; automated holdup; peptide, crude extract; concentration not given, corrected by standard peak, unit not given; baseline: biotin control resin, higher = stronger binding).
Under “log2 fold change”, `B5 (human CAP2)` is recorded as -0.19 (PP6C (human); co-immunoprecipitation, IP-MS; CYB5R4 knockout cells; concentration not given; baseline: CYB5R4 knockout over parental).
With `VVVGAVGVGK` the remaining protein was 0.781 and 0.813 and 0.804 (HLA-A*11:01 peptide-β2M single-chain trimer; western blot, refers to: pMHC-I; peptide, 293T cells; 60 h, unit not given, together with: 100 µg/mL cycloheximide; baseline: time zero).

For quick reference, copied from above:
`GEMVGQARILAQATSDLVNAIKDA` — result for “mean rupture force”: 55.1 pN (vinculin head domain Vd1; complex rupture, AFM single-molecule force spectroscopy; peptide; traces traces, C-terminal pulling, 800 nm/s).
With `AUUGUUUAU (ssRNA)` the Kd was 6.09 µM (U2AF2; sequencing of bound RNA; RNA; motif only).
For `B1 (CSRP2, human)`, “log2 fold change” read -1.91 (PP6C (human); co-immunoprecipitation, IP-MS; CYB5R4 knockout cells; concentration not given; baseline: CYB5R4 knockout over parental).
